Experimental data gathered from unrelated publications.
Protocols differ between the studies behind these lines. Several values in a cell are separate wells, animals, samples, runs or records. Numbers after ± are the reported error.

O=C(O)[C@@H]1CCCN1c1ncnc2[nH]cnc12 (racemic)
log fold enrichment (human THEMIS domain; binding, affinity selection mass spectrometry; baseline: other proteins in batch): -0.0605

O=C(NS(=O)(=O)c1ccccc1-c1ccccc1)c1cc2ccc(C(F)F)cc2o1
IC50 (estrogen receptor alpha, human; reporter gene; MCF7-MVLN; 24 h): > 20 µM

CC(C)NCCCn1c(Sc2cc3c(cc2I)OCO3)nc2c(N)ncnc21
activity (MyBP-C; MYBPC3 iPSC-derived cardiomyocytes (human); concentration not given, fresh powder retest): inactive

COc1cccc(CNC(=O)C#Cc2cn(Cc3ccc(C(=O)O)cc3)c(=O)[nH]c2=O)c1
remaining MMP-3 activity (MMP-3; inhibitor, colorimetric; 20 µM): 85 ± 18%

O=S(=O)(NCCNC/C=C/c1ccc(Br)cc1)c1cccc2cnccc12
embryos at morula stage (PKA; inhibitor; mouse zygotes; 20 µM, Post hCG injection, 96 h, early embryonic development): 55% and 47.1%

Oc1ccccc1-c1n[nH]cc1-c1ccnc2ccccc12
log2 fold change (SKY1 (Candida albicans); kinase binding, MIB/MS competition; Candida albicans lysate; 1 µM; baseline: DMSO): -0.41

C[C@H](CS)C(=O)N1C[C@@H](Sc2ccccc2)C[C@H]1C(=O)O
IC50 (aminopeptidase W (pig); enzyme activity, inhibitor): 7 µM

COc1ccc([C@@H](O)[C@@H](C)Oc2ccc([C@H]3O[C@H](c4ccc(O[C@H](C)[C@H](O)c5ccc(OC)c(OC)c5)c(OC)c4)[C@H](C)[C@H]3C)cc2OC)cc1OC
IC50 (HIF-1, human; reporter gene, inhibitor; HEK293T; hypoxia): 0.0112 µM

CC(Nc1nc(N2CCCC2)nc2ccccc12)c1ccccc1 (centres unmarked)
cells with nuclear reporter (importin α/β1; cMyc nuclear import, high content imaging; HeLa Kyoto reporter; 0.32 µM, 2 h): 88.2% and 98.2%

COc1ccc(C(=O)COc2ccc(N3C(=O)[C@@H]4[C@@H]5C=C[C@@H]([C@H]6C[C@@H]56)[C@@H]4C3=O)cc2)cc1
EPC level (lanosterol synthase (mouse); Mut6; 0.1 µM): 342 ng/mg protein

CCS(=O)(=O)c1nc(C2CC2)cc(C(F)(F)F)n1
cells with nuclear reporter (transportin-1/2; FUS nuclear import, high content imaging; HeLa Kyoto reporter; 0.05 µM, 2 h): 95.1% and 98.8%

CN(C)c1ccc2nc3ccc(=[N+](C)C)cc-3sc2c1
residual current at end of application (GABAA receptor human; GABA-evoked current; HEK293; 300 µM; baseline: control): 10 to 30%

CC(=O)O[C@H]1C(=O)[C@@]2(C)[C@H]([C@H](OC(=O)c3ccccc3)[C@]3(O)C[C@H](OC(=O)[C@H](O)[C@@H](NC(=O)c4ccccc4)c4ccccc4)C(C)=C1C3(C)C)[C@]1(OC(C)=O)CO[C@@H]1C[C@@H]2O
geometric mean inhibition (tubulin; tubulin polymerization, inhibitor; Caco-2; 50, 100, 500 ppm): 63.2%

CC1CNC(=O)NC1=O (centres unmarked)
log2 fold change (binding, MIDAS equilibrium dialysis LC-MS; A2AR-BRIL thermostabilized; concentration not given; baseline: no-protein control): -0.387

CNC(=O)[C@@H]1CC[C@@H](n2c(-c3ccc4cnccc4c3)nc3ccc(C(=O)NCc4cccc(C(N)=O)c4)cc32)C1
percent of control (human FLT3 ITD/F691L; binding, KINOMEscan; 1000 nM; lower = stronger binding): 100%

C[n+]1cccc2cc(C=NNC(=O)c3ccc4ccc5ccc(C(=O)NN=Cc6ccc7c(ccc[n+]7C)c6)nc5c4n3)ccc21.[I-].[I-]
ΔTm (22CTA telomeric G4-DNA antiparallel; FRET melting; 1 µM, K10 buffer, DNA 0.2 µM): 27.9 ± 0.1 °C

CC[S+]([O-])c1nc(-c2ccccc2)cc(C(F)(F)F)n1 (centres unmarked)
cells with nuclear reporter (transportin-1/2; FUS nuclear import, high content imaging; HeLa Kyoto reporter; 1.58 µM, 2 h): 93.2% and 95.7%

CCCc1cc(C)[nH]c(=O)c1CNC(=O)c1cc(-c2ccc(N3CCN(C(C)C)CC3)nc2)cc2c1cnn2C(C)C
IC50 (15 other methyltransferases (lysine, arginine, DNA); enzyme activity, inhibitor): > 100 µM

O=C(NOCC(O)CO)c1cc(Br)c(F)c(F)c1Nc1ccc(I)cc1F (centres unmarked)
inhibition (IDO1; kynurenine production; A-431; 1 µM, added: IFN-gamma): 84.1%

O=C1CCNC(=O)N1
log2 fold change (binding, MIDAS equilibrium dialysis LC-MS; A2AR-BRIL thermostabilized; concentration not given; baseline: no-protein control): -0.539
